Measurements pooled from the literature.
Lines come from different studies, so protocols differ. ± marks the error that the study gave.

SMILES | cell line | assay | conditions | scale | quantity | result
CC(C)c1cccc(C(C)C)c1-n1c(Cl)c(Cl)n(-c2c(C(C)C)cccc2C(C)C)c1=[Se].[Cl][Au] | A2780 ADR | MTT |  | reference: A2780 ADR over A2780 | resistance factor | 0.5
COc1cc(CNC(=O)C[C@H](C)CCC=C(C)C)ccc1OCc1cn(-c2cccc(C(F)(F)F)c2)nn1 | NCI-H23 | SRB | 10 µM, 48 h |  | growth percent | 79.3%
COc1ccc(-c2nc3ccc(C4=NNC(=O)CC4C)cc3[nH]2)cc1 (stereo not shown) | hiPSC cardiac tissues 3D | active force | 15 min per concentration, paced at 1 Hz serum-free |  | minimum effective concentration | 3 µM
COc1cc(CNC(=O)C[C@H](C)CCC=C(C)C)ccc1OCc1cn(-c2ccccc2F)nn1 | SK-OV-3 ovarian cancer cells | SRB | 10 µM, 48 h |  | growth percent | 43.6%
COC(=O)CCC(=O)Oc1ccc(/C=C/C(=O)CC(=O)/C=C/c2ccc(O)c(OC)c2)cc1OC | MHCC97H | cell growth or viability, MTT | 100 µg/mL, 96 h |  | inhibition | 71.8%
CC(=O)OC[C@H]1O[C@@H](Sc2sc(C(=O)c3ccc(Br)cc3)c(N)c2-c2nc3ccccc3s2)[C@H](OC(C)=O)[C@@H](OC(C)=O)[C@@H]1OC(C)=O | TK-10 | SRB | 10 µM, 48 h | reference: untreated | growth | 147%
O=Cc1c(O)ccc2ccccc12 | HUVEC | RNA sequencing, item: BEX1 | 75 µM, 24 h | reference: DMSO | log2 fold change | 2.49
N=C(N/N=C/c1ccc(F)cc1)N/N=C/c1ccc(F)cc1 | PANC-1 | crystal violet | 72 h | reference: IC50 IMR-90 over IC50 PANC-1 | selectivity ratio | 0.6
COc1cc(/C=C/C(=O)/C=C/c2ccc(O)c(OC)c2)ccc1O | CEM-T HIV-1 infected | RT-qPCR, item: HIV-1 gag and env | 1 µM, 48 h |  | mRNA level | decreased
C=CC(=O)Nc1ccccc1Nc1nc(Nc2ccnc(C#CCCNC(=O)OC3CC/C=C/CCC3)c2)ncc1Cl (stereo not shown) | A-375 | degrader, immunoblot | concentration not given |  | ERK1/2 protein level | no effect
COc1cc(CNC(=O)C[C@H](C)CCC=C(C)C)ccc1OCc1cn(-c2ccc([N+](=O)[O-])cc2)nn1 | KM12 | SRB | 10 µM, 48 h |  | growth percent | 86.8%
CC(=O)OC[C@H]1O[C@@H](Sc2sc(C(=O)c3ccc(C)cc3)c(N)c2-c2nc3ccccc3s2)[C@H](OC(C)=O)[C@@H](OC(C)=O)[C@@H]1OC(C)=O | HOP-92 | SRB | 10 µM, 48 h | reference: untreated | growth | 58.8%
CCCCCCCCCCCCCCCCCCCCCCCC(=O)OCC(O)CO (stereo not shown) | J774.2 | inhibitor | concentration not given, together with: LPS |  | nitric oxide production | inactive
COc1cc(CNC(=O)C[C@H](C)CCC=C(C)C)ccc1OCc1cn(-c2cccc(Cl)c2)nn1 | TK-10 | SRB | 10 µM, 48 h |  | growth percent | 99.8%
COc1cc(/C=C/c2cc(/C=C/c3ccc(O)c(OC)c3)n(-c3ccc([N+](=O)[O-])cc3[N+](=O)[O-])n2)ccc1O | Sf9 | cell growth, MTT | 100 µM, 72 h |  | inhibition | 91.8%
CCC(=C(c1ccc(Cl)cc1)c1ccc(OCCCN(C)C)cc1)c1ccc(OC)cc1 | Ishikawa |  | 10 µM, 72 h, unit not given | reference: DMSO | alkaline phosphatase activity | 0.04 ± 0.07
COc1ccc([C@@H]2CC(=O)c3c(O)cc(O[C@@H]4O[C@H](CO[C@@H]5O[C@@H](C)[C@H](O)[C@@H](O)[C@H]5O)[C@@H](O)[C@H](O)[C@H]4O)cc3O2)cc1O | A549 | cell growth or viability, MTS | 100 µg/mL, 24 h |  | viability | 60.9%
COc1cc(CNC(=O)C[C@H](C)CCC=C(C)C)ccc1O | NCI-H322M | SRB | 10 µM, 48 h |  | growth percent | 91.1%
COc1cc(CN2CCN(c3ccccc3[N+](=O)[O-])CC2)c2cc3[n+](cc2c1O)CCc1cc2c(cc1-3)OCO2 | Ca-Ski and MDCK | SRB | 48 h | reference: CC50 MDCK over IC50 Ca-Ski | therapeutic index | 27.6

Excerpt of the above:
SMILES | cell line | assay | conditions | scale | quantity | result
COC(=O)CCC(=O)Oc1ccc(/C=C/C(=O)CC(=O)/C=C/c2ccc(O)c(OC)c2)cc1OC | MHCC97H | cell growth or viability, MTT | 100 µg/mL, 96 h |  | inhibition | 71.8%
